Results pooled from the literature.
Every numbered part comes from another study and shows a few of its results, in no order. Substitutions count along the parent as printed.

Series 1
Target: ABI1, truncated, D143A, DHFR fusion (Arabidopsis thaliana)
Method: DHFR PCA, deep sequencing
Sample: yeast
Setting: methotrexate growth selection, single substitutions
Added: (+)-ABA 0 µM
Relative to: wild-type fitted maximum
Direction: higher = stronger binding
Starting sequence: PYL1, truncated, DHFR fusion (Arabidopsis thaliana); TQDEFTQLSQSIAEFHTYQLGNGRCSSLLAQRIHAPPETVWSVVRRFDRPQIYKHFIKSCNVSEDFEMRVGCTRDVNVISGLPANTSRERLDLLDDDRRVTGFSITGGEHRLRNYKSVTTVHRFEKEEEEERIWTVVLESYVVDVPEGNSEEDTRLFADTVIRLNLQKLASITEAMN
| Change | relative binding score |
| --- | --- |
| V161F | 16.5% |
| G23N | 26.7% |
| C25N | 2.61% |
| E152T | 0.927% |
| V62K | -10.1% |
| W41I | 4.38% |
| E64G | 14.3% |
| S150K | 12.9% |
| T39H | 7.86% |
| I52E | 16.9% |
| F157L | 3.52% |
| E38K | -4.06% |
| A13R | 34.3% |
| N114D | 7.04% |

Series 2
Target: MAFK, bZIP domain (human)
Method: DHFR protein complementation
Sample: yeast
Setting: single substitutions, most at no-binding floor
Relative to: wild-type JUN-FOS pair
Direction: higher = stronger binding
Starting sequence: JUN, bZIP domain (human); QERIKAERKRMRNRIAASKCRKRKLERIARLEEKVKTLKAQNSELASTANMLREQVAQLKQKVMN; partner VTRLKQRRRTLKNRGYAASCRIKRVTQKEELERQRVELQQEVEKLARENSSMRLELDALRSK
| Change | binding fitness |
| --- | --- |
| I28H | -1.48 natural log |
| E54H | -1.62 natural log |
| T48L | -1.49 natural log |
| M51R | -1.42 natural log |
| R53L | -1.36 natural log |
| A29R | -1.46 natural log |
| A49L | -1.4 natural log |
| A29C | -1.5 natural log |
| E44Y | -1.53 natural log |
| R30I | -1.17 natural log |
| A46C | -1.43 natural log |
| E32N | -1.5 natural log |
| Q55G | -1.49 natural log |
| R30W | -1.5 natural log |
| E33T | -1.52 natural log |
| E32I | -1.44 natural log |
| V35F | -1.54 natural log |
| Q55R | -1.53 natural log |
| L31W | -1.5 natural log |

Series 3
Target: Interferon regulatory factor 7, full length, phosphomimetic (IRF7, Homo sapiens, UniProt Q92985, residues 1-503, S471D/S472D/S475D/S476D/S477D/S483D/S484D/S487D)
Method: protein-binding microarray
Form: double-stranded DNA, one strand shown
Sample: in vitro
Tested at: 2200 nM top
Setting: 60-bp whole probe
Added: salmon DNA 0.4 mg/ml
Relative to: random background probes
Direction: higher = stronger binding
All sequences stand within: GCCTAGCAC … GTCTTGATTCGCTTGACGCTGCTG
Residues (chain): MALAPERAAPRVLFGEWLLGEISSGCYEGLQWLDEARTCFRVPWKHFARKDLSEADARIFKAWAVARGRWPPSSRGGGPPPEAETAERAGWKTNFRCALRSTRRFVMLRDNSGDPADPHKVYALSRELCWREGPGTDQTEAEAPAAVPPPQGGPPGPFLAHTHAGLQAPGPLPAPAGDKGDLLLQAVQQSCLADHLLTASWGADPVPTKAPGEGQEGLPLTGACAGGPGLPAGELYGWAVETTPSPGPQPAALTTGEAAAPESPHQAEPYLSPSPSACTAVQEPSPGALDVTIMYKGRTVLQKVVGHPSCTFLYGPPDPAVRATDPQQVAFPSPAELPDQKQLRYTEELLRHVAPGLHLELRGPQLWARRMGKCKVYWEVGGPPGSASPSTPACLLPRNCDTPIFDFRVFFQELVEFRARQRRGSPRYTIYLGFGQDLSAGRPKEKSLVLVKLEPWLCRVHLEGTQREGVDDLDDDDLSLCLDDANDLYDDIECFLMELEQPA
| Strand | fitted relative affinity |
| --- | --- |
| GACGCTTTCGACTATCGGGACGTGCTA | 4 z-score |
| TTAGGTTTCCATATCCTTTAGTGCTAG | 2.79 z-score |
| TCATTGGTTGAACATGAACTGTGCTAG | 0.351 z-score |
| TTCGAACTGGGGTATCGATTAGTGCTA | 0.345 z-score |
| ACCACTCCAGTTCTGGGAAAGTGCTAG | 0.41 z-score |
| GACGGACTTGGTCTCGGGACGTGCTAG | -0.498 z-score |
| GACGATATCGGGTTCCGAGACGTGCTA | 0.21 z-score |
| TTAGGTATCGGGAGTGGGTTAGTGCTA | -0.366 z-score |
| GACGGTTTAGGTTCCGGGACGTGCTAG | 0.826 z-score |
| GACGATTTCAGACTGGGGACGTGCTAG | 0.569 z-score |
| TTAGATACCAGACTGGATTAGTGCTAG | -0.00442 z-score |
| CACGGTTTCGGGTATCGGGACGTGCTA | 6.09 z-score |
| GACGGTATCCTACTACTGACGTGCTAG | 0.799 z-score |
| TTAGGACTGGGTCTCGGTTCGTGCTAG | 0.505 z-score |
| GACGGTCTTCTTATCCTGACGTGCTAG | 0.852 z-score |
| GACTATATCAGACTGGAGACGTGCTAG | 0.171 z-score |
| GACGGTTTCGACACTCGGGACGTGCTA | 3.22 z-score |

Series 4
Target: RNA binding protein fox-1 homolog 2, RRM domain, GST-SBP tag (RBFOX2, Homo sapiens, UniProt O43251-10, residues 100-194)
Method: RNA Bind-n-Seq
Form: RNA
Sample: in vitro
Tested at: 365 nM
Setting: natural RNA segment, single round, ends assumed
Relative to: no-protein control
Direction: higher = stronger binding
All sequences stand within: GGGAGUUCUACAGUCCGACGAUC … UGGAAUUCUCGGGUGCCAA
Residues (chain): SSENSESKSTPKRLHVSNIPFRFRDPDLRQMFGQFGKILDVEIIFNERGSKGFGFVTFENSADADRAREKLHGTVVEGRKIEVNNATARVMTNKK
| Strand | RBNS enrichment (R) |
| --- | --- |
| AGCCCGGGUGGGGCUGCAGAAAAAUGAUUGGCCCCAGUCCCCUUGUUUGUCCCUUCUACAGGCAUGAGGAAUCUGGGAGGCCCUGAGACAGGGAUUGUGCUUCAUUCCAA | 1.6 |
| UUUUGUAGUUGUGGCAUCUUGUUGACAUCGAAUAUGACUUUGAUAAUAAAUACCAGUUCCUGAAAGUGCUUGCCUUUUUUGUUUUUGUAUAUUUUGUAGAGGUGGCCAUU | 1.1 |
| CUCCUGGGCACCCUUGCCUCGCCCCAGACCGGCCCGUCCAGUCCCCAUCACACCUCGGCGGCCUUUAUUUAUUCUGUUCCCCCAGCUCGGCCACUUCUCUGAAGGAGGGC | 0.33 |
| CAUACCUGUCACUGCUGGAGUCAAACUUAUAAAAAGCCUUAAGUGGAAAGUGUUCCAGACGGAGACUCUGAGUUAAUAGAGGAGUAGAAGCUGGUGUUAAAGUUCCCACG | 0.343 |
| UAAAUUAUGCUUCCAACCUUGUAUAGGUUUGUAAGCUUGCCCAGAAGUGAGACCACUGUUGAAGUACCACAAAAGUUUGAAUGAACGAGUGAGUGUUCACUCUUUUGUCU | 0.319 |
| AAGGGAGGGGUGGAGAUGGGUGUGGCAGUGUAUGGUGUGUGAUUUUUAUUUUCUUCUUUGGUCAUGGGGGCCAAGGAGAAAGGCAUGAAUCUUCCCUGUCAGGCUCUUAC | 1.86 |
| UUAAAAACAAGGACAAUAAAUAUUCAAAAUGCAUCCCUAAUUACUACAUUUGACCACGAUCUGUGCUUAUCUGUGCACUGACUGUGAUCUGUGAGGUUGGCUCUGUUGUG | 0.354 |
| AAGGCCAGGGAAGAAGGUAUGAAGAAAAGGUGAUUGAGAACUAAUUACCAAGGGAAACUGGCAAGACAACUGGAUGCGUGUAAUCCGAAUGGUCAUAAUGAGACAACAGC | 1.92 |
| AGGGGUUGUAUCUUCCUUCUUACCUGUUCAUCAACCAGCCCUCUCAUUGCUGCUGCAAGUCUGGCUCUUUGCCUCUGCUGUGCCAGGCCUCCAUGGUGUCUGCAUAGAGC | 0.358 |
| UCCUAACAGCUCAGCCCUGGCCUUUUCUCACUACUGAUAGCAUCAUGUAAAUGCUCCAUGUUCCUGUACACUGUCUCCUUUUGGAGCAUCUCUGAAUGGAGCAUGGCUGU | 0.284 |
| CCGUAAUGCUGCAUUACAUGUAGGACUGUGUUUACUAAAGUGUGUAAAUGUUUAUAUAAAUACCAAAUUGCAGCAUCCCCAAAAUGAAUAAAGCCUUUUUACUUGUGGGU | 1.06 |
| ACCUGUCCUGGGAUGGAGUGUCAGCAUCCACCCCUUGGUUGUCAUCGAGGCCGCCCUCCCAGUCCUGGGUGAAGAUAUUUGGGCCACCAGGGCUCCCUUGGCCCCUUCAC | 0.737 |

Series 5
Target: Ras GTPase-activating protein-binding protein 1, full length (G3BP1, Homo sapiens, UniProt Q13283)
UniProt Q13283, sequence (whole entry, looked up): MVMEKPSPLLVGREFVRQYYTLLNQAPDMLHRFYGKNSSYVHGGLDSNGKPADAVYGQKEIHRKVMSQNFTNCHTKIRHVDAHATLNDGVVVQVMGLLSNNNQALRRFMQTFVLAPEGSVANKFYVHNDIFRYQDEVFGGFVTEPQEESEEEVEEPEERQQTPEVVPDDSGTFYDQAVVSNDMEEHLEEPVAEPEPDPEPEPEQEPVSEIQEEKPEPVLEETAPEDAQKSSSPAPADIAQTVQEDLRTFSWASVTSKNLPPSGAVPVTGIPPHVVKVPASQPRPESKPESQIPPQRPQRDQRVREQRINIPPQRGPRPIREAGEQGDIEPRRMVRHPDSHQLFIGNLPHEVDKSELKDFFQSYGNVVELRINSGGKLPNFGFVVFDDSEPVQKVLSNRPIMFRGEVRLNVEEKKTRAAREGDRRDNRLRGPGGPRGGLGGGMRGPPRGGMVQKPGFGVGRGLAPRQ
Method: RNA Bind-n-Seq
Form: RNA
Sample: in vitro
Tested at: 200 nM
Setting: whole 134-nt RNA, ends assumed
Added: 150 mM LiCl
Relative to: input library
Direction: higher = stronger binding
All molecules: 7-deaza-guanosine replaces G
All sequences stand within: GGGAGUUCUACAGUCCGACGAUC … UGGAAUUCUCGGGUGUCAAGG
| Strand | log2 enrichment |
| --- | --- |
| CAAGUCCUGUGCUACACAUCGUAUGUACCGAAUCGGGAAAGGGAAAAAGGGAGGGAAAGUAUUAUGUUACGCCGUUCGGAUCUGCACUUC | 0.0202 |
| UCCUGUGCUACACAUCGUAUGUACCGAAUCAAAUUUUUUUAAAUUUAAACCCCCCCAAAAAAGUAUUAUGUUACGCCGUUCGGAUCUGCA | 1.5 |
| UUGUUUAUUCUGUGUCUUUUGCCUCCUUUCCUACAGAUGUCCGGCAGGAUAAUGCUGCUGGCAGAGCUGGCUCCAGUAGCCUUACACAGG | 1.1 |
| AAGUCCUGUGCUACACAUCGUAUGUACCGAAUCGGGGCCCGGCCCGGGGCCCGGGGAAAGUAUUAUGUUACGCCGUUCGGAUCUGCACUU | -1.22 |
| AAGUCCUGUGCUACACAUCGUAUGUACCGAAUCGGGUUUGGGAAAAAGGGAAAGGGAAAGUAUUAUGUUACGCCGUUCGGAUCUGCACUU | -0.389 |
| CACAGACAACACGCACCCACACAGACACAGAGGGAAGGGGUUGGGAUGGGGACAGGGUGCACAGCAGGGCGGGGUAGGAAACCAGCCCCU | 0.528 |
| GUCCUGUGCUACACAUCGUAUGUACCGAAUCGGGGUUUGGGGUUUGGGGAAAAAGGGGAAAGUAUUAUGUUACGCCGUUCGGAUCUGCAC | -0.63 |
| CUCAAGUCCUGUGCUACACAUCGUAUGUACCGAAUCGGGGUUGGUUGGGUUGGGAAAGUAUUAUGUUACGCCGUUCGGAUCUGCACUUCC | -0.225 |
| CUCAAGUCCUGUGCUACACAUCGUAUGUACCGAAUCGGUUUUUGGUUUGGAGGAAAGUAUUAUGUUACGCCGUUCGGAUCUGCACUUCCA | 0.109 |
| AGUCCUGUGCUACACAUCGUAUGUACCGAAUCGGGAAAAAGGAAAAAGGGGAAAAAGGAAAGUAUUAUGUUACGCCGUUCGGAUCUGCAC | -0.475 |
| UUAAAACAUGGCAACUUGUAAUUGUUUUCUUUCUUAGGAACAUCAUUCAUGGCAGUGAUUCAGUAAAAAGUGCUGAAAAAGAAAUCAGCC | -0.977 |

Series 6
Target: CCNB3, cyclin fold, Cln2 fusion (human)
Method: yeast growth competition, sequencing
Sample: yeast
Setting: weak parent motif
Relative to: not given
Direction: higher = stronger binding
Starting sequence: E2F1 docking peptide (human); PPVKRRLDLETDH; partner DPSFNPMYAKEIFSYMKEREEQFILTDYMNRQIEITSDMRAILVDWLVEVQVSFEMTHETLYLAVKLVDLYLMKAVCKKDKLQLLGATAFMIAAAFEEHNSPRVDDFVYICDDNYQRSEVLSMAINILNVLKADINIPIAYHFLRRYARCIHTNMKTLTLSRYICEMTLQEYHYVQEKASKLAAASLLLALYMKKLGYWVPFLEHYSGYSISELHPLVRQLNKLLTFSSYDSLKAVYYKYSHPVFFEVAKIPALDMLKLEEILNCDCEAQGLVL
| Change | normalised enrichment score |
| --- | --- |
| P2S | 0.248 |
| H13N | 0.223 |
| T11D | 0.0366 |
| L7Q | 0.191 |
| P2L | 0.142 |
| K4G | -0.0905 |
| K4R | 0.474 |
| D8N | 0.601 |
| V3S | 0.185 |
| L7R | -0.472 |
| H13K | 0.712 |
| D12S | 0.47 |
| R5G | -0.112 |

Excerpt of the above (series 6):
| Change | normalised enrichment score |
| --- | --- |
| L7R | -0.472 |
| T11D | 0.0366 |
| H13K | 0.712 |
| P2S | 0.248 |
| L7Q | 0.191 |
| P2L | 0.142 |
| V3S | 0.185 |
